Measurements gathered from unrelated publications.
Protocols differ between the studies behind these lines. “And” joins repeats or separate records; there may be more than shown. ± gives the spread as reported.

`O=C(Cc1cccnc1)Nc1ccc([C@H]2[C@@H](F)[C@@H](F)C[C@@H](F)[C@H]2F)cc1` has a hepatic clearance of 23 mL/min/kg (cryopreserved mouse hepatocytes; 1 µM).
For `C=CC(=O)Nc1cc(Nc2nccc(-c3cn(C4CC4)c4ccccc34)n2)c(OC)cc1N(C)CCN(C)C`, the relative error was -3.2% (freeze-thaw stability; rat plasma; 1 ng/mL, three freeze-thaw cycles; baseline: nominal concentration).
With `COc1ccnc(C(=O)N[C@H]2COC(=O)[C@H](Cc3ccccc3)[C@@H](O)[C@H](C)OC2=O)c1O` the KFoc was 266 mL/g (soil adsorption; clay loam soil; pH 7.2, organic carbon 4.4 %).
`Cc1cn(C(=O)c2c(-c3c(Cl)cc(Cl)cc3Cl)noc2C(C)(C)F)c2cccc(/C=C/C(=O)O)c12` gave an AUC(0-8h) of 242 µg·h/mL (human patients; 1000 mg bid, cycle 8 day 1).
Under “plasma K+ level”, `C=CC[C@@H]1/C=C(\C)C[C@H](C)C[C@H](OC)[C@H]2O[C@@](O)(C(=O)C(=O)N3CCCC[C@H]3C(=O)O[C@H](/C(C)=C/[C@@H]3CC[C@@H](O)[C@H](OC)C3)[C@H](C)[C@@H](O)CC1=O)[C@H](C)C[C@@H]2OC` is recorded as 4.8 ± 0.4 mmol/L (Wistar Kyoto rat, male, plasma; ip, 0.5 mg/kg/day, day 28, at sacrifice).
Under “patients with decreased leukocytes”, `COc1cc(Nc2ncc3c(n2)-c2ccc(Cl)cc2C(c2c(F)cccc2OC)=NC3)ccc1C(=O)O` is recorded as 50% (cancer patients; oral, dose not given, all grades any attribution, together with: pembrolizumab).
Under “AUCinf fold increase”, `Cc1cc(C)c(CNC(=O)c2cc(Cl)c3c(c2C)O[C@@](C)([C@H]2CC[C@H](N(C)C)CC2)O3)c(=O)[nH]1` is recorded as 1.6 fold and ~1.6 fold (human, male; oral, dose not given, together with: fluconazole; baseline: compound alone).
For `NC1(C(=O)N[C@@H](CCO)c2ccc(Cl)cc2)CCN(c2nc[nH]c3nccc2-3)CC1`, “incidence of Vomiting” read 0% (metastatic CRPC patients; 400 mg b.i.d., grade 3 to 4, treatment-related, together with: enzalutamide 160 mg daily).
For `CCO`, “TEAE leading to withdrawal” read 0% (human; concentration not given).
`Cc1cc(NC2CCN(C(=O)OC3CCN(C(=O)/C=C/CN(C)C)C3)CC2)n2ncc(C(C)C)c2n1` (stereo not drawn) — result for “patients with TEAE”: 0% (CTCAE v4.0, item: Hypomagnesemia; patients with advanced solid tumours; oral, dose not given, TIW, grade 3 or higher).
`CC(C(=O)Nc1ccc(C2CCCCC2)cc1)n1cncn1` (stereo not drawn) gave a hepatic clearance of 3.9 mL/min/kg (human liver microsomes; 1 µM, without NADPH).
With `C#C[C@]1(CO)O[C@@H](n2cnc3c(N)nc(F)nc32)C[C@@H]1O` the AUC(0-168 h) was 3.68 µM·h (human, plasma; oral, 30 mg single dose, extrapolated beyond 96 h).
`Cn1cc(Nc2nccc(-c3ccc4c(c3)CN(C3COC3)CC[C@H]4NC(=O)c3cn(C(C)(C)C)nn3)n2)cn1` — result for “CD3+ T cell count change”: -5.88% (human, whole blood; 300 mg twice daily, day 14; baseline: pre-dose baseline).
`Cc1ccc2c(c1)nc(/C=C/c1cccc3cccnc13)n2-c1cccc(OCCCN2CCN(C)CC2)c1` gave a plasma concentration of 0.443 ± 0.0755 µM (male Sprague-Dawley rat; oral, 10 mg/kg, 4 h).
For `CCOc1c([C@H](C)n2nc(C)c3c(N)ncnc32)cc(Cl)c(F)c1[C@@H]1CNC(=O)C1`, the Cmin was 0.104 ± 0.046 µM (patients, monotherapy; oral, 10 mg once daily, cycle 1 day 15).
For `FC(F)(F)CN1CC(n2cc(Oc3ccn4nc(Cl)cc4n3)cn2)C1`, “day of premature euthanasia” read 4 days (Crl:CD(SD) rat, male; oral, 450 mg/kg/day, 14-day repeat-dose toxicology).
With `Nc1ccccc1/C=C/C(=O)c1ccccc1` the excitation maximum was 405 nm (toluene; 20 °C).
`CCN1/C(=C/C(C)=O)Sc2ccc(F)cc21` — result for “PR interval change”: 99.8 ± 4.4% (cynomolgus monkey; oral, 10 mg/kg, 24 h post-dose; baseline: pre-dose).
`C[C@H]1O[C@@H](O[C@H]2[C@@H](O)C[C@H](O[C@H]3[C@@H](O)C[C@H](O[C@H]4CC[C@@]5(C)[C@H](CC[C@@H]6[C@@H]5C[C@@H](O)[C@]5(C)[C@@H](C7=CC(=O)OC7)CC[C@]65O)C4)O[C@@H]3C)O[C@@H]2C)C[C@H](O)[C@@H]1O`: “subjects with adverse event” 0% (item: gastrointestinal disorders; healthy men; oral, dose not given, 8 days, treatment-emergent, crossover trial).
`CC(C)C[C@@H]1NC(=O)[C@H](CCCCN)NC(=O)[C@H](CC(N)=O)NC(=O)[C@H](CCCNC(=N)N)NC(=O)[C@H]([C@@H](C)O)NC(=O)[C@@H]2CSSC[C@@H]3NC(=O)[C@H]([C@@H](C)O)NC(=O)CNC(=O)CNC(=O)[C@H](C(C)C)NC(=O)[C@@H]4CSSC[C@H](NC(=O)[C@H](CCCCN)NC(=O)[C@H](CSSC[C@H](NC(=O)[C@H](C(C)C)NC(=O)[C@@H]5CCCN5C1=O)C(=O)NCC(=O)N[C@@H](CCC(=O)O)C(=O)N[C@@H]([C@@H](C)O)C(=O)N4)NC(=O)CNC(=O)[C@@H]1CCCN1C(=O)[C@H]([C@@H](C)O)NC(=O)[C@H](CC(N)=O)NC3=O)C(=O)N[C@@H](CO)C(=O)N[C@@H](Cc1c[nH]c3ccccc13)C(=O)N1CCC[C@H]1C(=O)N[C@@H](C(C)C)C(=O)N2` has a remaining peptide of 98.2 ± 2.6% (HPLC; ammonium bicarbonate 0.1 M; 180 µM, 14 days, pH 9.0, 37 °C, deamidation stability).
For `COc1ccc2c(c1)CN(C(=O)CCN1CCC(Cc3ccccc3)CC1)CC[S@@+]2[O-]`, the PQ interval was 82 ± 6 ms (telemetry; conscious male beagle dogs; intravenous, 4 mg/kg, 0.5 h).
For `Cc1cc(Nc2ccc(S(F)(F)(F)(F)F)cc2)n2nc(C(C)(F)F)nc2n1`, “adverse event Stomatitis” read 0% (Plasmodium vivax malaria patients; oral, 400 mg).
`CC(C)(C(=O)N1CCOc2c(C#N)cncc2C1)C(F)F` — result for “share of subjects with TEAE”: 0% (item: musculoskeletal disorders; healthy humans, both sexes; oral, 20 mg single dose).
`O=C(Cn1ccnc1)Nc1ccc([C@H]2[C@@H](F)[C@@H](F)C[C@@H](F)[C@H]2F)cc1` gave a hepatic clearance of 10 mL/min/kg (cryopreserved rat hepatocytes; 1 µM).
Under “treatment-emergent adverse events”, `O=C(Nc1nc2cccc(-c3ccc(CN4CCS(=O)(=O)CC4)cc3)n2n1)C1CC1` is recorded as 0% (item: dysgeusia; human rheumatoid arthritis patients; oral, 150 mg once daily, 4 weeks, regardless of relatedness).
For `COc1ccc2c(c1)sc(-c1ccc(N(C)C)cc1)[n+]2C`, “excitation maximum wavelength” read 411 nm (PBS; free dye).
For `OCc1nc2ccc(NCc3ccc(C(F)(F)F)cc3)cc2[nH]1`, the MRT(0-inf) was 1.09 ± 0.1 h (Balb/c mice, male, plasma; intravenous, 1 mg/kg).
`COCCOc1cnc2ccn([C@H](C)c3nnc4c(F)cc(-c5cnn(C)c5)cn34)c(=O)c2c1` has a Cmax of 2140 ng/mL (patients, plasma; oral, 100 mg twice daily, day 28, 200 per day).
The circulation time of `CC1(C)C(/C=C/C=C/C=C2/N(CCCCCC(=O)NCCC(=O)N3Cc4ccccc4C#Cc4ccccc43)c3ccc(S(=O)(=O)O)cc3C2(C)C)=[N+](CCCS(=O)(=O)[O-])c2ccc(S(=O)(=O)O)cc21` is reported as over 35 days (C57BL/6 mouse, azido-sugar treated, blood, RBC-conjugated; intravenous, single dose).
With `CN(C)CCC(=O)Nc1ccc([C@H]2[C@@H](F)[C@@H](F)C[C@@H](F)[C@H]2F)cc1` the hepatic clearance was 40 mL/min/kg (liver microsome stability; rat liver microsomes; 1 µM).
`CCN1CCN(Cc2ccc(Nc3ncc(F)c(-c4cc(F)c5nc6n(c5c4)[C@H](C)CCC6)n3)nc2)CC1` gave a CL/F of 32.3 L/h (human, plasma; 200 mg single dose, mean).
For `O=C(Nc1ccc(Cl)cc1)Nc1ccc(Cl)c(Cl)c1`, “dose fraction in milk fat” read 83.8% (whole cow milk; 200 nM nominal).
`O=C(COCC(F)F)Nc1ccc(C2CCCCC2)cc1` gave a hepatic clearance of 18 mL/min/kg (liver microsome stability; human liver microsomes; 1 µM, without NADPH).
`CC(C)(c1ccc(O)cc1)c1ccc(O)cc1` — result for “milk fat partition ratio”: 13.7 (cow whole milk; 2000 nM; baseline: milk fat over skim milk).
`Cc1cc2sc(N)nc2c2cccnc12` has an AUMC extrapolated of 1.69% (female BALB/c mice, plasma; i.p., 30 mg/kg, observed).
For `CSCC[C@H](N)C(=O)N[C@@H](CC(C)C)C(=O)N[C@@H](CCCNC(=N)N)C(=O)N[C@@H](Cc1c[nH]c2ccccc12)C(=O)N[C@@H](CO)C(=O)N[C@@H](CCCNC(=N)N)C(=O)N[C@@H](CCCCN)C(=O)N[C@@H](CC(C)C)C(=O)N1CCC[C@H]1C(=O)N[C@@H](CS)C(=O)N[C@H](C(=O)N[C@@H](CO)C(N)=O)C(C)C`, the remaining activity was 2 ± 0.3% (12G5 competition, SUP-T1 cells; human plasma; 20 µM, 8 h, 37 °C).
For `CCOCc1nc(O)c(-c2nnc(Cc3ccc(Cl)cn3)o2)c(O)c1-c1c(OC)cccc1OC`, the plasma concentration was 9.88 ± 0.488 µM (anaesthetized rats, plasma; intravenous infusion, 100 µg/kg/min for 15 min, 20 min washout).
The hepatic clearance of `CN1CCN(C(=O)c2ccc(C3CCCCC3)cc2)CC1=O` is reported as 7.9 mL/min/kg (hepatocyte stability; cryopreserved human hepatocytes; 1 µM).
With `C=CC(=O)Nc1cc(Nc2nccc(-c3cn(C)c4ccccc34)n2)c(OC)cc1N(C)CCN(C)C` the recovery was 69.2% (storage stability; human dried blood spots; 72 h, on ice, medium QC level).
The concentration of `O=C(N[C@H](Cc1c[nH]c2ccccc12)C(=O)Nc1ccncc1)c1ccc(-c2ccc(F)c(Cl)c2)cc1F` is reported as 42.8 µM (Swiss Webster mouse, female, liver; oral, 50 mg/kg, 2 h, 20% Kolliphor vehicle).
`O=C(NCCc1cccnc1)c1ccc([C@H]2[C@@H](F)[C@@H](F)C[C@@H](F)[C@H]2F)cc1` has a hepatic clearance of 73 mL/min/kg (liver microsome stability; mouse liver microsomes; 1 µM).
Under “dose recovered as radioactivity”, `C=CC(=O)NC1CCN(c2ncc3ncnc(Nc4ccc(Oc5ccc6c(c5)ncn6C)c(C)c4)c3n2)CC1` is recorded as 1.25% (item: total radioactivity; healthy male volunteers, urine; oral, 60 mg, 336 h post-dose, 14C-labelled, geometric mean).
`O=C(NCc1cc[nH]n1)c1ccc([C@H]2[C@@H](F)[C@@H](F)C[C@@H](F)[C@H]2F)cc1` gave a hepatic clearance of 38 mL/min/kg (hepatocyte stability; cryopreserved rat hepatocytes; 1 µM).
Under “cortisol level change”, `N#Cc1ccc2c(c1)[C@H]1CCCN(C(=O)c3ccc4[nH]cnc4c3)[C@H]1C2` is recorded as -62 nmol/L (human; 80 mg, day 15; baseline: baseline).
Under “share of plasma radioactivity”, `Cc1cc(C)c(CNC(=O)c2cc(Cl)c3c(c2C)O[C@@](C)([C@H]2CC[C@H](N(C)C)CC2)O3)c(=O)[nH]1` is recorded as 95.9% (human, plasma; oral, 200 mg, up to 0008 (unit not given)).
`CN(CCCN1CCN(C(=O)CN2CCN(CC(=O)[O-])CCN(CC(=O)[O-])CCN(CC(=O)[O-])CC2)CC1)c1ccc2nccc(C(=O)NCC(=O)N3CC(F)(F)C[C@H]3C#N)c2c1.[68Ga+3]` has an uptake of 0.6 ± 0.1 %IA/g (mice, HT-1080.hFAP and HT-1080 wild-type xenografts, lung; iv, 500 pmol, 1 h post injection).
`NC(=O)N1c2ccccc2C=Cc2ccccc21` — result for “adverse events incidence”: 0% (item: neck pain; human male; oral, dose not given, CTCAE on-treatment AEs).
Under “participants with TEAE”, `Cc1ccc(Sc2ccccc2N2CCNCC2)c(C)c1` is recorded as 0% (item: Nausea; healthy adult men; oral, 20 mg single dose, 10 day).

Repeated from above:
For `COc1ccc2c(c1)CN(C(=O)CCN1CCC(Cc3ccccc3)CC1)CC[S@@+]2[O-]`, the PQ interval was 82 ± 6 ms (telemetry; conscious male beagle dogs; intravenous, 4 mg/kg, 0.5 h).
For `FC(F)(F)CN1CC(n2cc(Oc3ccn4nc(Cl)cc4n3)cn2)C1`, “day of premature euthanasia” read 4 days (Crl:CD(SD) rat, male; oral, 450 mg/kg/day, 14-day repeat-dose toxicology).
`Cc1cc2sc(N)nc2c2cccnc12` has an AUMC extrapolated of 1.69% (female BALB/c mice, plasma; i.p., 30 mg/kg, observed).
Under “treatment-emergent adverse events”, `O=C(Nc1nc2cccc(-c3ccc(CN4CCS(=O)(=O)CC4)cc3)n2n1)C1CC1` is recorded as 0% (item: dysgeusia; human rheumatoid arthritis patients; oral, 150 mg once daily, 4 weeks, regardless of relatedness).
`Cc1ccc2c(c1)nc(/C=C/c1cccc3cccnc13)n2-c1cccc(OCCCN2CCN(C)CC2)c1` gave a plasma concentration of 0.443 ± 0.0755 µM (male Sprague-Dawley rat; oral, 10 mg/kg, 4 h).
For `CSCC[C@H](N)C(=O)N[C@@H](CC(C)C)C(=O)N[C@@H](CCCNC(=N)N)C(=O)N[C@@H](Cc1c[nH]c2ccccc12)C(=O)N[C@@H](CO)C(=O)N[C@@H](CCCNC(=N)N)C(=O)N[C@@H](CCCCN)C(=O)N[C@@H](CC(C)C)C(=O)N1CCC[C@H]1C(=O)N[C@@H](CS)C(=O)N[C@H](C(=O)N[C@@H](CO)C(N)=O)C(C)C`, the remaining activity was 2 ± 0.3% (12G5 competition, SUP-T1 cells; human plasma; 20 µM, 8 h, 37 °C).
